Experimental data collected from several papers.
Parts stem from different laboratories: compare values within a part only. Substitutions count along the parent as printed.

Series 1
Target: CCNF, cyclin fold, Cln2 fusion (human)
Technique: yeast growth competition, sequencing
Sample: yeast
Notes: strong parent motif
Reference: not given
Direction: higher = stronger binding
Measurement: normalised enrichment score
Starting sequence: BORA docking peptide (human); SSLRRKLFLDGNG
SSLRKKLFFDGNG [R5K L9F]: 3.76
ASLRRKLFLDGNG [S1A]: 5
SSARRKLFLDGNG [L3A]: 8.26
SSLRRKAFLDGNG [L7A]: 1.27
SSLRRALFLDGNG [K6A]: 5.21
SSLRRKLFLDGAG [N12A]: 6.27
SSLRRKLFADGNG [L9A]: 4.98
SSLRKKLFLDGNG [R5K]: 1.37

Series 2
Target: RNA binding protein fox-1 homolog 2, RRM domain, GST-SBP tag (RBFOX2, Homo sapiens, UniProt O43251-10, residues 100-194)
Technique: RNA Bind-n-Seq
Form: RNA
Sample: in vitro
Concentration: 365 nM
Notes: natural RNA segment, single round, ends assumed
Reference: no-protein control
Direction: higher = stronger binding
Measurement: RBNS enrichment (R)
Constant ends, left off below: GGGAGUUCUACAGUCCGACGAUC … UGGAAUUCUCGGGUGCCAA
Residues (chain): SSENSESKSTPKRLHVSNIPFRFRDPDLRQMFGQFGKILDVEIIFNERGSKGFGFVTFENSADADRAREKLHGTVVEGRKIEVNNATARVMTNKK
GGGACAAGAGGCCUGGACUGAGAUGUGAGUCCCAUGGAAGACUUCCUCUCCACCCCCCACAUCGGUCCUCUCAAAUACCCAAUGGGAUUCCAGCUUGAAGGAUUGCAUCC: 0.763
UGAGACAAACUGAAAAUUAUUGCAAGCAUUGACUAUAAUUAUGCAGUACGUUCUCAGGAUGCAUCCAGGGGUUCAUUUUCAUGAGCCUGUCCAGGUUAGUUUACUCCUGA: 1.96
GACUUAGCCUCAAAUUGGUGUUUUUCUUUCCCAAGAAUUCAUCUUAAGGGUUAGCUUUGAGUAUGUUACUGUCCUUCUAUGACAAGACCAAAGGAACAAACUCCUUGGUG: 0.291
CUCGGCCGUCUAGCAGCUCCCAGAACCCGCGGCUGCCACCGCAUCCUUAUAAACCUGUCAGCACGCAUGAGGGUGUCUGUGUUCAGGGAAAUGAAUGACUAAUACCAUUA: 5.7
CAGCCAGGUGGCCUCACCUGCUGCCCAGAAUUAGGCUGUGCCUUUUCCCAGUCCUUCCCCAUGCCAGAGCCUCUCCCCAUCUUUCCCCGCGCCAGAGCCUCACAGCCACA: 0.411
CUCAAUGCCUGGGUUACAUAGGAAAUGCACCCUGAGGUUUUAAUAAAGCCCCUAUGGCUAUAACUUUAAAUAAACUAAACCAAAAAUGUUAUUGAUGUUUUAUAUAGAGA: 1.23
UUAUUCUACCCUAUUUUAUAAUGCAGGACUUUUGUAAUGUUGUUUAAAUGAGGAAAAAUUUCUGUCAAAUUAGCCUAGUAAAAUUUCUGAUCGUUCAUUAUAAAGGCAGC: 0.472
GGGUUUGGGCCCUCAGAACCCUGCCCUGCAUCUUUGUACAGCAUCUGUGCCAUGGAUUUUGUUUUCCUUGGGGUAUUCUUGAUGUGAAGAUAAUUUGCAUACUCUAUUGU: 1.24
UCAUAAAUCUCAGCCAAUGGUCUUCAAAGCCUUUACCUGAAGAGACCACACUCCAACACGGAGCUGGGGGCAUCGCUCCACAAAGACCUGCUGUGGGAAGAGGGUACUGA: 0.327
UGCCGCAGCAAAUGAGGCUUCUCUCUGAGGAGCUGAGAGGUCUUGCAGCCUCUCCUUGUCAUUCUCCCACCCCACAUCCCAUUUUUUAAAGCCCUUUUGGUAAAAACCAA: 0.248
AAUCACUCAGUUCUUGGAAAAGUCAAACAACGUGGUGGACAUUUUGUCACAUUUUAGAAGCAGUCAGAUUCCCCCAAACGGCACGUGAACCUGAGUGCGGAUACUGCAAU: 0.315
UUGUCUGAAUGUAAUACAGUCUUCAUUGUACUAUUCAACCCUUUGUUUCUUUCUUUUUCAUUUUGUGAAAAACUCCAUGUUAGUCCUCUUAGAUGACUGCUUAUUUAUGU: 0.691

Series 3
Target: Histone acetyltransferase KAT6A, winged helix 2, GST fusion (KAT6A, Homo sapiens, UniProt Q92794, residues 85-181)
Technique: protein binding microarray
Form: double-stranded DNA, one strand shown
Sample: in vitro
Concentration: not given
Notes: 8-mer, flanks averaged, mean of 2 arrays, mostly near background
Reference: not given
Direction: higher = stronger binding
Measurement: E-score
Residues (chain): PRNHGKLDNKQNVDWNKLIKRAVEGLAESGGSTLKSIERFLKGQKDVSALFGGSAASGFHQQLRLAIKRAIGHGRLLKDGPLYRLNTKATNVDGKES
CGACATCG: -0.0809
AGGGTCCC: -0.0076
AGAGCAAA: 0.191
AGGGAGGA: 0.0359
TACTTTCA: -0.00517
ATCAAAAG: 0.0161
GCTGATTA: 0.149
GGAAAGGA: -0.0491
ACTTGACT: -0.233
TGCGAAAA: 0.252
ATTCCTAG: -0.00884
AACGGATG: 0.0115
GGAGTACC: -0.102
TAGGACTA: -0.118
CATCAAGG: -0.145
TCTTTACA: 0.1
GATCTCGA: 0.059
CACCACCA: 0.049
CCGGCTAA: 0.066
GGGCGTAC: -0.001
AAGGGATA: 0.00773
CGCGACAC: 0.106
CCAATTAA: -0.0225
GTCTTCCA: 0.0947
ATGGATAA: -0.133

Series 4
Target: Sal-like protein 4, full length isoform A (SALL4, Homo sapiens, UniProt Q9UJQ4, residues 1-1053)
Chain of UniProt Q9UJQ4 (whole entry, looked up): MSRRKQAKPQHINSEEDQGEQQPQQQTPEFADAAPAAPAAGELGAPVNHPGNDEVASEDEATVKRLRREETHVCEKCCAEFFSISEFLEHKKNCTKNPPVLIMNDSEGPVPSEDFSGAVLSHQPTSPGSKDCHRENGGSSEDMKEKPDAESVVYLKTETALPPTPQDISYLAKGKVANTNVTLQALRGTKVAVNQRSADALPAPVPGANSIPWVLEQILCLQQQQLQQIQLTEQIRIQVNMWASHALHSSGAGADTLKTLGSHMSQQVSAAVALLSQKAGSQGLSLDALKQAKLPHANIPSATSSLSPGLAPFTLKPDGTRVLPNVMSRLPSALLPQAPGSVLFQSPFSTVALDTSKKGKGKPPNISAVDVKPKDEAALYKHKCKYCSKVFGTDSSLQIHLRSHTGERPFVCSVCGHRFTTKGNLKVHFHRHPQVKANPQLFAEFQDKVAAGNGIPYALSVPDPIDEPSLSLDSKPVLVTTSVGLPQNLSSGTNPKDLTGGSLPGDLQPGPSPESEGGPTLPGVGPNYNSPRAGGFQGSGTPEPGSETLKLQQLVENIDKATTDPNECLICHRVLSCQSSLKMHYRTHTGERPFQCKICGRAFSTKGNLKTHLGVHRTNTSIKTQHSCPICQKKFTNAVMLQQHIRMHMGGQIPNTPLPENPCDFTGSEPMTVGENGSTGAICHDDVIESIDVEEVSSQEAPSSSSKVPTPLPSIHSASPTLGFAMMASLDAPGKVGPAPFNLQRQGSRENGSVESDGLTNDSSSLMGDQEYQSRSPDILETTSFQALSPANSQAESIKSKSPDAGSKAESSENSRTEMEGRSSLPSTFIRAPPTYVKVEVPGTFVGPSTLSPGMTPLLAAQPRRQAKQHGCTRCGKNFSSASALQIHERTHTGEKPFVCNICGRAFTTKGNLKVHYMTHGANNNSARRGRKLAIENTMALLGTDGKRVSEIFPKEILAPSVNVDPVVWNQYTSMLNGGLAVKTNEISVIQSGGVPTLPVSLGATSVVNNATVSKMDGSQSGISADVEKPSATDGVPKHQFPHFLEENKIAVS
Technique: universal PBM
Form: double-stranded DNA, one strand shown
Sample: in vitro
Concentration: 600 nM
Notes: 8-mer, flanks averaged, mean of replicates
Direction: higher = stronger binding
Measurement: E-score
ACGAAGGC: -0.299
ATGTTCTA: 0.0937
ATAATAGC: 0.266
CAGCGGCC: -0.33
ATGCTTAG: 0.228
CAAGACAC: 0.0497
ACTGGCTA: -0.119
TCATGGAA: 0.244
AAGGGCGG: -0.298
CCCGGAGC: -0.33
AAGCTGCT: -0.123
ACAATGCC: -0.0944
AGCAACTA: 0.198
CGCCTTGC: -0.186
AACGCCTG: -0.149
CGGGTCAA: -0.278
CGGTAGAA: -0.188
CCCTACCG: -0.206
CTGCTGGC: -0.336
CCACTGAG: -0.207
ACATCAAC: 0.0687
CATGAAAG: 0.105

Series 5
Target: Fragile X messenger ribonucleoprotein 1, C-terminal low-complexity region (Fmr1, Mus musculus, UniProt P35922)
Technique: RNA Bind-n-Seq
Form: RNA
Sample: in vitro
Concentration: 200 nM
Notes: whole 134-nt RNA, ends assumed
Added: 150 mM LiCl
Reference: input library
Direction: higher = stronger binding
Measurement: log2 enrichment
All molecules: 7-deaza-guanosine replaces G
Constant ends, left off below: GGGAGUUCUACAGUCCGACGAUC … UGGAAUUCUCGGGUGUCAAGG
GCAGGAAGUAAAAACAAAUGGAAAUGCUUCGGAUAGUGGCAGUGGUGGGGGUUGCUAAGGAAAGGGUGGGAUGGGAGUGGGUAAAGAGUU: 1.39
UAACUUUAGAGGAGGAUCUGAUGGAUAUGGCAGUGGACGUGGAUUUGGGGAUGGCUAUAAUGGGUAUGGAGGAGGAACUGGAGGUGGCAA: 1.11
GCCUGGCGCUGGCCAACAAUAGCACCCUCACCAUUGGCACCAUCGAUGAGAUCCAGAAGCUGCACAUUCGCACAGUUCCCCUCUAUGAGU: 0.763
AAGUCCUGUGCUACACAUCGUAUGUACCGAAUCGGGGUGGGGUGGGGUUUUUGGGGAAAGUAUUAUGUUACGCCGUUCGGAUCUGCACUU: -1.47
CACAGACAACACGCACACACACAGACACAGAGGGAAGGGGUUGGGAUGGGGACAGGGUGCACAGCAGGGCGGGGUAGGACCCCAGCCCCU: 0.469
CCUCAAGUCCUGUGCUACACAUCGUAUGUACCGAAUCGGGUGGGAGGGAGGGAAAGUAUUAUGUUACGCCGUUCGGAUCUGCACUUCCAG: -0.738
CACAGACAACACGCACCCACACAGACACAGAGGGAAGGGGUUGGGAUGGGGACAGGGUGCAAAGCAGGGCGGGGUAGGACCCCAGCCCCU: -0.00244
GCAGGAAGUAAAAACAAAUGGAAAUGCUUCGGAUAGUGGCAGGGGUGGGGUUUGCUAAGGAAAGGGUGGGAUGGGAGUGGGUAAAGAGUU: 1.19
UCCUGUGCUACACAUCGUAUGUACCGAAUCGGGGUUUUUUUGGGGAGGGGUUUUUGGGGAAAGUAUUAUGUUACGCCGUUCGGAUCUGCA: 0.00656
ACCAUGCAGGUGGGCAUCUUUGGGAAGUGGGGCAAGGGGGGGAUAGGGAGGGGGGUAACACUUUGGGAACAGGUGGUCCCAGUUCGUUUC: 1.27
AGUCCUGUGCUACACAUCGUAUGUACCGAAUCGGGGCCCCCGGCCCCCGGCCCCCGGAAAGUAUUAUGUUACGCCGUUCGGAUCUGCACU: -2.47

For quick reference, copied from above (series 3):
GCTGATTA: 0.149
ATCAAAAG: 0.0161
AAGGGATA: 0.00773
CCAATTAA: -0.0225
TAGGACTA: -0.118
